Experimental data from different studies.
Every numbered part comes from another study and shows a few of its results, in no order. ± gives the spread as reported.

Study 1
Target: HLA class I histocompatibility antigen, A alpha chain, allele A*02:01 (Homo sapiens, UniProt P04439)
Observed: binding
Mode: competitor
| SMILES | IC50 [nM] |
| --- | --- |
| CC[C@H](C)[C@H](NC(=O)[C@@H](NC(=O)[C@@H](N)CCCNC(=N)N)[C@@H](C)O)C(=O)N[C@@H](CCCCN)C(=O)N[C@H](C(=O)N[C@@H](Cc1ccccc1)C(=O)N[C@H](C(=O)N[C@H](C(=O)N[C@H](C(=O)O)C(C)C)[C@@H](C)O)[C@@H](C)O)C(C)C | 554 |
| CC(C)[C@H](NC(=O)[C@@H](NC(=O)[C@@H](NC(=O)[C@@H](NC(=O)[C@@H](NC(=O)CNC(=O)[C@H](CO)NC(=O)[C@@H](N)Cc1ccc(O)cc1)C(C)C)C(C)C)[C@@H](C)O)[C@@H](C)O)C(=O)O | 6630 |
| CC(C)C[C@H](NC(=O)[C@@H](NC(=O)[C@H](CCC(=O)O)NC(=O)[C@H](CC(N)=O)NC(=O)[C@H](CC(C)C)NC(=O)[C@H](CC(=O)O)NC(=O)[C@H](CC(N)=O)NC(=O)[C@H](CC(C)C)NC(=O)[C@@H](N)[C@@H](C)O)[C@@H](C)O)C(=O)O | 531 |

Mixed results
B1: uvrD1 1-725 (Mycobacterium tuberculosis, UniProt P9WMQ1); chain MSVHATDAKPPGPSPADQLLDGLNPQQRQAVVHEGSPLLIVAGAGSGKTAVLTRRIAYLMAARGVGVGQILAITFTNKAAAEMRERVVGLVGEKARYMWVSTFHSTCVRILRNQAALIEGLNSNFSIYDADDSRRLLQMVGRDLGLDIKRYSPRLLANAISNLKNELIDPHQALAGLTEDSDDLARAVASVYDEYQRRLRAANALDFDDLIGETVAVLQAFPQIAQYYRRRFRHVLVDEYQDTNHAQYVLVRELVGRDSNDGIPPGELCVVGDADQSIYAFRGATIRNIEDFERDYPDTRTILLEQNYRSTQNILSAANSVIARNAGRREKRLWTDAGAGELIVGYVADNEHDEARFVAEEIDALAEGSEITYNDVAVFYRTNNSSRSLEEVLIRAGIPYKVVGGVRFYERKEIRDIVAYLRVLDNPGDAVSLRRILNTPRRGIGDRAEACVAVYAENTGVGFGDALVAAAQGKVPMLNTRAEKAIAGFVEMFDELRGRLDDDLGELVEAVLERTGYRRELEASTDPQELARLDNLNELVSVAHEFSTDRENAAALGPDDEDVPDTGVLADFLERVSLVADADEIPEHGAGVVTLMTLHTAKGLEFPVVFVTGWEDGMFPHMRALDNPTELSEERRLAYVGITRARQRLYVSRAIVRSSWGQPMLNPESRFLREIPQELIDWRRTAPKPSFSAPVSGAGRFGSARPSPTRSGASRRPLLVLQVGD
| Molecule | tested on | test | system | conditions | quantity | result |
| --- | --- | --- | --- | --- | --- | --- |
| COc1ccc(-c2cc(=O)c3c(OC)cc(OC)cc3o2)cc1 | SARS-CoV-2 | viral replication | – | post-treatment | EC50 | 51000 ± 1010 nM |
| main protease S147A (SARS-CoV-2) | itself | native MS | – | 5 µM, apo | dimer fraction | 7 ± 1% |
| mku (Mycobacterium tuberculosis, UniProt P9WKD9) | itself | SEC | – | – | subunits per oligomer | 2 |
| main protease L115M (SARS-CoV-2) | itself | native MS | – | 5 µM, apo | dimer fraction | 15 ± 1% |
| B1 (uvrD1 1-725) | itself | AUC | – | – | binding | binds |
| O=c1[nH]cnc2c([C@@H]3N[C@H](CO)[C@@H](O)[C@H]3O)c[nH]c12 | SARS-CoV-2 | – | Vero C1008, Omicron BA.5 | 48 h | EC90 | 2000 ± 69 nM |
